Published values gathered from unrelated publications.

Structure (SMILES) = NCCONC(=O)[C@@H]1CC[C@@H]2CN1C(=O)N2OS(=O)(=O)O; test system = human male, urine; conditions = intravenous infusion, 2 g single dose; endpoint = fraction excreted in urine (0-8 h); value = 71.5%
Structure (SMILES) = CC(C)(Sc1ccncc1-c1ccc(C#N)c2ccccc12)C(=O)O; test system = human, urine; conditions = oral, 10 mg, together with: febuxostat 0 mg; endpoint = fraction excreted in urine (0-24 h); value = 1.89%
Structure (SMILES) = NC[C@@]1(CC(=O)O)[C@@H]2CC[C@H]3C[C@@H]2[C@@H]1C3; test system = human, normal renal function, urine; conditions = oral, 20 mg single dose, 0-72 h; endpoint = fraction excreted in urine; value = 70%
Structure (SMILES) = C[C@@H](Oc1ccc(S(C)(=O)=O)cc1C(=O)N1C[C@@H]2C[C@]2(c2cc(C(F)(F)F)on2)C1)C(F)(F)F; test system = young healthy humans, urine; conditions = oral, 75 mg, 0 to 24 h, single dose; endpoint = fraction excreted in urine; value = 1.77%
Structure (SMILES) = CC(C)OC(=O)[C@@H](C)N[P@@](=O)(OC[C@H]1O[C@@H](n2ccc(=O)[nH]c2=O)[C@](C)(Cl)[C@@H]1O)Oc1ccccc1; test system = human, plasma; conditions = sponsor value used in model; endpoint = fraction unbound; value = 0.577
Structure (SMILES) = Cn1cc(-c2cn3nccc3c(-c3cnn([C@]4(CC#N)C[C@@H](C#N)C4)c3)n2)cn1; test system = human, urine; conditions = oral, 100 mg once daily, day 10, dosing interval geometric mean; endpoint = fraction excreted unchanged in urine; value = 1.1%
Structure (SMILES) = CC(C)n1c(C2CCNCC2)nc2c([N+](=O)[O-])c(Br)c(Br)cc21; test system = human, urine; conditions = oral, 150 mg, median, single dose; endpoint = fraction excreted in urine; value = 0.03
Structure (SMILES) = Cl.[2H]C([2H])([2H])CC(=O)c1cnc(NC(=O)C2CC2)cc1Nc1cccc(-c2ncn(C([2H])([2H])[2H])n2)c1OC; test system = human, urine; conditions = oral, dose not given; endpoint = fraction excreted unchanged; value = < 1%
Structure (SMILES) = Cc1cc(-c2nccc3c2ccn3CC(=O)Nc2ccc(-c3cnccn3)cn2)ccn1; test system = human, urine; conditions = oral, 20 mg single dose, geometric mean; endpoint = fraction excreted in urine; value = 1.21%
Structure (SMILES) = CN[C@@H]1COc2c(S(=O)(=O)NC(=O)Nc3c4c(cc5c3CCC5)CCC4)cnn2C1; test system = healthy human volunteers, urine; conditions = oral, 600 mg, fasted; endpoint = fraction excreted in urine 0-48 h; value = 0.125
Structure (SMILES) = O=C(c1nc2n(n1)[C@H](c1ccccc1)C[C@@H]2F)C1CC1; test system = human; conditions = 150 mg single dose; endpoint = fraction excreted in urine 0-72 h; value = 0.1 to 0.2%
Structure (SMILES) = COc1ccc(F)cc1C(=O)NCc1ccc(-c2nn([C@@H](C)C(F)(F)F)c(N)c2C(N)=O)cc1; test system = human; conditions = intravenous, 22 µg, biliary excretion assumed; endpoint = fraction metabolised by other pathways; value = 0.39
Structure (SMILES) = CNC(=O)c1ccc(-c2cnc3ncc(Cc4ccc5ncccc5c4)n3n2)cc1F; test = ultrafiltration; test system = human mild hepatic function, plasma; conditions = oral, 200 mg, 3 h post-dose, mean; endpoint = fraction unbound; value = 0.0318
